Assay results of several laboratories.
Compare with care: the assays were run in different laboratories. Values joined by “and” are separate records of one study, mostly repeats; a detail may differ.
lasR: Transcriptional activator protein LasR (lasR, Pseudomonas aeruginosa, UniProt P25084)
UniProt P25084, sequence (whole entry, looked up): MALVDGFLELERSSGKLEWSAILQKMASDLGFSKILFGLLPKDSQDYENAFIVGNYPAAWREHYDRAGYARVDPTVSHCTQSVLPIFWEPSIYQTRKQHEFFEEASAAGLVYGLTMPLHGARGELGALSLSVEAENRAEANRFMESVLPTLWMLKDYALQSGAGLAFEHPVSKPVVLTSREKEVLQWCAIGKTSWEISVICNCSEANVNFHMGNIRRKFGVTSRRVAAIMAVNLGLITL
Uncharacterized hydrolase SAUSA300_2518: Uncharacterized hydrolase SAUSA300_2518 (Staphylococcus aureus, UniProt Q2FDS6)
UniProt Q2FDS6, sequence (whole entry, looked up): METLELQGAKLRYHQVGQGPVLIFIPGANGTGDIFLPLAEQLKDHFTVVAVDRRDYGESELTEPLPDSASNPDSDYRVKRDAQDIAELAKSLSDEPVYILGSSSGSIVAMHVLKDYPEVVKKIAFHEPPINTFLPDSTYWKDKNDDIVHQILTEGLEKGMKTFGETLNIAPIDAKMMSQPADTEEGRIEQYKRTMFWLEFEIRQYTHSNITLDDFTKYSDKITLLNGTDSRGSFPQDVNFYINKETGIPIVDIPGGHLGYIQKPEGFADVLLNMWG
UniProt P41595, sequence (whole entry, looked up): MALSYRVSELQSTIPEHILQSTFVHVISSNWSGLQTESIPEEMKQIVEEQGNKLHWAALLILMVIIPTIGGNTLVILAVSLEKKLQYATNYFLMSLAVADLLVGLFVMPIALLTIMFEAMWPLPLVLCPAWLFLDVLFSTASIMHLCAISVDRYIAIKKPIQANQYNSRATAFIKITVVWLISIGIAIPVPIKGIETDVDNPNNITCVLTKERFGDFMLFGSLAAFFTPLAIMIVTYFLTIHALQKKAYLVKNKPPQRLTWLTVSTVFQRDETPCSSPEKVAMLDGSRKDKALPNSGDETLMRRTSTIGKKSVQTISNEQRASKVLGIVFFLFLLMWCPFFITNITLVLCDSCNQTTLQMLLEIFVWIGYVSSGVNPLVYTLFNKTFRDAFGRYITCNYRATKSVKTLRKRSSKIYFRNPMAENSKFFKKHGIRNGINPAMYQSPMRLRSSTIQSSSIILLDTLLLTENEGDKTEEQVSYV
UniProt P27361, sequence (whole entry, looked up): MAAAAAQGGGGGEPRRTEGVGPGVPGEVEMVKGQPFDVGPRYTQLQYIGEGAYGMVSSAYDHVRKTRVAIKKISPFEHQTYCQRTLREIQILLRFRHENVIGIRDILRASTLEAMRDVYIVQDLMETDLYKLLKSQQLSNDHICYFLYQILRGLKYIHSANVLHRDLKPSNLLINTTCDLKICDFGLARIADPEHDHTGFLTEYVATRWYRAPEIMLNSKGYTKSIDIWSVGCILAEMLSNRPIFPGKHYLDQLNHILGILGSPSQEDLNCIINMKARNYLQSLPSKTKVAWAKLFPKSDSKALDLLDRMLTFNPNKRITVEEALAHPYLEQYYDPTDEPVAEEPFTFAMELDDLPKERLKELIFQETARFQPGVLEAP
UniProt P54764, sequence (whole entry, looked up): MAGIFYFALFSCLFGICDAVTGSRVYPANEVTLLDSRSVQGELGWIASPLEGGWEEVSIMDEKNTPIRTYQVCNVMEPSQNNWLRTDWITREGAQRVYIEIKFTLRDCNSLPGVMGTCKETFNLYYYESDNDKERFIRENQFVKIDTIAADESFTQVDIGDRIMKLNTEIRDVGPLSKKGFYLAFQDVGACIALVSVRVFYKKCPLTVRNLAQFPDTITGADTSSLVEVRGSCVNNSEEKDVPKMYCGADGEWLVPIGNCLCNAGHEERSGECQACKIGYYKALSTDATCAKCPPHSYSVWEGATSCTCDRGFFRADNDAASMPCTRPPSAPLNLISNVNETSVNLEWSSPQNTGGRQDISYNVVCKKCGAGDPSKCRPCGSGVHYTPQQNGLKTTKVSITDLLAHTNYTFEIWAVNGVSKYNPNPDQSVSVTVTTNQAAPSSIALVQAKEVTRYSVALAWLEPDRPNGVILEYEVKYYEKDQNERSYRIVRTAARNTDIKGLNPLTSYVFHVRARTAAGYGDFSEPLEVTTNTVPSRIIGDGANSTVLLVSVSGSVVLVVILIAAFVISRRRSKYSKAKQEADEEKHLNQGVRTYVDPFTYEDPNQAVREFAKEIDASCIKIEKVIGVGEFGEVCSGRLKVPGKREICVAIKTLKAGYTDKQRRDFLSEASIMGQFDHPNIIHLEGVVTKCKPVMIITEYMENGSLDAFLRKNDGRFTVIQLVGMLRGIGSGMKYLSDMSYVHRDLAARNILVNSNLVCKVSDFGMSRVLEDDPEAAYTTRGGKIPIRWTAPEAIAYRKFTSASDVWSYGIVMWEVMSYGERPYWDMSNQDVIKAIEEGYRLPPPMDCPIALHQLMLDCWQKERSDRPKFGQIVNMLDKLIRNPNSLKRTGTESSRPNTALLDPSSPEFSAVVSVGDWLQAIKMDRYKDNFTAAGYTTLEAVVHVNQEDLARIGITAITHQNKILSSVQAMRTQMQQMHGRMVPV
UniProt Q9UM07, sequence (whole entry, looked up): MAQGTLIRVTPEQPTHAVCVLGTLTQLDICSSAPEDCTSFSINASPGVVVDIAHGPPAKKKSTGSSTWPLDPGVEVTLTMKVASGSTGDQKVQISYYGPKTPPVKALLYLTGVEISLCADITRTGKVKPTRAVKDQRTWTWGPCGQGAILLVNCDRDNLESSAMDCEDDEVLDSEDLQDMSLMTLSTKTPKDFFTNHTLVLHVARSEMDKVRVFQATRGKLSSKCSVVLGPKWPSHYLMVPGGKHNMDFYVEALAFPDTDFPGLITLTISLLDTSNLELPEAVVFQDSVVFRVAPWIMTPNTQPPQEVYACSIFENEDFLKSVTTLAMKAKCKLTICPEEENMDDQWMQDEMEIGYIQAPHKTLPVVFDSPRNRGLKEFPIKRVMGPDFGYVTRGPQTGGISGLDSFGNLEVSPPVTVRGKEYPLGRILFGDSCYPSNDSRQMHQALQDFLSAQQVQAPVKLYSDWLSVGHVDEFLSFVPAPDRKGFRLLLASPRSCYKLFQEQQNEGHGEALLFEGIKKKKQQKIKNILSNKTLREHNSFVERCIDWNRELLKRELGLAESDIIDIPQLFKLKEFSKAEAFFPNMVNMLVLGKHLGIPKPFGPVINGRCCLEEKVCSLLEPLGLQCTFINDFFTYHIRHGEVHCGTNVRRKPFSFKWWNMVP
UniProt P29320, sequence (whole entry, looked up): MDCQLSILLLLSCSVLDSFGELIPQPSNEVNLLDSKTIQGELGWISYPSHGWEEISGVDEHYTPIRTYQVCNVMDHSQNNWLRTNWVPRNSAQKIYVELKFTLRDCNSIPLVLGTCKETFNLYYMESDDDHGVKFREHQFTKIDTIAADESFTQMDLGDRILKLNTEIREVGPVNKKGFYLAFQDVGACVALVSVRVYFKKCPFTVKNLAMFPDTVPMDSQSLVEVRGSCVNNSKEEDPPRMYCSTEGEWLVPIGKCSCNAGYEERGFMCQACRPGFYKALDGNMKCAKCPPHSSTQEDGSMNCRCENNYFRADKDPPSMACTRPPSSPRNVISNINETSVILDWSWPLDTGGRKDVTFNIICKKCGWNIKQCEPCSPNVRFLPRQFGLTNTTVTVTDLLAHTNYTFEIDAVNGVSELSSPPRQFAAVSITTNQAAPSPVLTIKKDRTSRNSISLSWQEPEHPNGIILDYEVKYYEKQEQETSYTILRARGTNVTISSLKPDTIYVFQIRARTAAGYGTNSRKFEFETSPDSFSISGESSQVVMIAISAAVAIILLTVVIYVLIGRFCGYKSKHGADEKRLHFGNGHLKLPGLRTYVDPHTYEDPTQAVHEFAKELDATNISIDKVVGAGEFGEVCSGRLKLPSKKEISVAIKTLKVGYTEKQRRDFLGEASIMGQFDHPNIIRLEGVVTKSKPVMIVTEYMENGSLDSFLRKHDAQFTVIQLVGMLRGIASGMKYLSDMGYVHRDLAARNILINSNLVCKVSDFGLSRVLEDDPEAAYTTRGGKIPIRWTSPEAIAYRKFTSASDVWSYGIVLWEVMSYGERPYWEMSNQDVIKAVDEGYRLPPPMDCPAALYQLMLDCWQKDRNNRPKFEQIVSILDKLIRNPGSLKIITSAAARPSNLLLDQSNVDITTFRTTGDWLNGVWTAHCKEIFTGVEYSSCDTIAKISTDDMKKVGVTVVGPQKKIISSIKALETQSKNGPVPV
UniProt Q9Y2U5, sequence (whole entry, looked up): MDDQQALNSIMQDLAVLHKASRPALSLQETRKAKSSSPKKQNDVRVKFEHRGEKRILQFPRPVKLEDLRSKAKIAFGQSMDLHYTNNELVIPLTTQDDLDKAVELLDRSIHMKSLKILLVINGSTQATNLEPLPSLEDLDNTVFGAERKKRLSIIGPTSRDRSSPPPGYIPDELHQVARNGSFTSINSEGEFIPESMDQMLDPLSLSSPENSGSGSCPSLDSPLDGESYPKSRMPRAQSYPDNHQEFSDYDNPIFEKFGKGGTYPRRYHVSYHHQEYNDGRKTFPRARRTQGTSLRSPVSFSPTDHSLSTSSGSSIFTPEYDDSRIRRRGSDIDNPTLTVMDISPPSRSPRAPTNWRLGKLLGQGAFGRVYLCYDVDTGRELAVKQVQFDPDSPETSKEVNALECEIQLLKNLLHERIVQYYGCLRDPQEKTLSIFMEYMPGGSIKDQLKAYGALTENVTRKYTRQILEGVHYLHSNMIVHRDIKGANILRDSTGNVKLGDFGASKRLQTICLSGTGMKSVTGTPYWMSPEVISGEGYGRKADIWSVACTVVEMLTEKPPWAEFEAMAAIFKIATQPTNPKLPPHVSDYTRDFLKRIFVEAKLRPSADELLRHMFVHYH
UniProt P78417, sequence (whole entry, looked up): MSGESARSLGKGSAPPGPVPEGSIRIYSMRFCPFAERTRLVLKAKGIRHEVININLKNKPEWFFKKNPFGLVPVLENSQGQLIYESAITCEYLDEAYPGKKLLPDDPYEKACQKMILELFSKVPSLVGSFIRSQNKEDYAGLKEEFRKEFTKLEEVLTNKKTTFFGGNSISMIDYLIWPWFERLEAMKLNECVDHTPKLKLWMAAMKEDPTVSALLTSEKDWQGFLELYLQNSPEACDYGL

SMILES	target	assay	test system	setting	inhibition
C=CC(=O)Nc1cc(-c2nn(C3CCC(N4CCN(C(C)=O)CC4)CC3)c3ncnc(N)c23)ccc1Oc1ccccc1 (stereo not drawn)	MAPK3 (Homo sapiens, UniProt P27361)	inhibitor, KiNativ profiling	biochemical	2 µM	-2.3%
CN(C)[C@H]1C[C@@]23CC[C@@]4(O2)C(=CC[C@]2(C)[C@@H](c5ccc6ccncc6c5)CC[C@H]24)C=C3[C@@H](O)[C@@H]1O	MAP3K2 (Homo sapiens, UniProt Q9Y2U5)	ATP probe labelling, inhibitor, KiNativ profiling	–	0.1 µM	-15.5%
O=C(CCCOc1cccc(Br)c1)N[C@H]1CCSC1=O	lasR	reporter gene, antagonist	Escherichia coli JLD271	10 µM, pSC11 and pJN105L plasmids, added: OdDHL 2 nM	-98%
CC(C)[C@H]1NC(=O)C[C@H]2/C=C/CCSSC[C@@H](NC1=O)C(=O)N[C@H](Cc1cccc3ccccc13)C(=O)NCC(=O)O2	DYRK1B (Homo sapiens, UniProt Q9Y463)	enzyme activity, inhibitor	–	10 µM	5.5%
CC(=O)NC[C@@H]1[C@@H](O)C[C@H]2[C@H](O)C[C@@H](CO)N12	β-N-acetylglucosaminidase	enzyme activity, inhibitor, colorimetric	Canavalia ensiformis	17.1 nM, added: p-nitrophenyl GlcNAc substrate	63.6% and 63.9%
CCc1nnc(-c2c(OC)cc(-c3cnc4cc(-c5cnn(C)c5)ccn34)cc2OC)o1	AVPR1A (Homo sapiens, UniProt P37288)	agonist radioligand, radioligand binding	–	10 µM, SafetyScreen44 V1a	3%
O=C(O)c1ccccc1/C=N/Nc1nc(-c2ccccc2Cl)cs1	EPHA3 (Homo sapiens, UniProt P29320)	enzyme activity, inhibitor	–	1 µM	-4.59%
CC(=O)NC[C@@H]1C[C@@H](O)[C@H]2[C@H](O)C[C@@H](CO)N12	β-N-acetylglucosaminidase	enzyme activity, inhibitor, colorimetric	Canavalia ensiformis	75 nM, added: p-nitrophenyl GlcNAc substrate	42.8% and 33.3%
CCOC(=O)[C@](CC)(CCCSCCOCCOCCNC(=O)c1ccc(-c2c3ccc(=N)c(S(=O)(=O)O)c-3oc3c(S(=O)(=O)O)c(N)ccc23)c(C(=O)O)c1)NC(=O)c1ccc(C2CC2)c(Cc2ccc(F)cc2)n1	PDE3B (Homo sapiens, UniProt Q13370)	enzyme activity, inhibitor	–	10 µM	15%
CCCCCCC(=O)N[C@H]1CCOC1=O	lasR	reporter gene, antagonist	Pseudomonas aeruginosa PAO-JP2	100 µM, plasI-LVAgfp reporter, added: OdDHL 150 nM	26%
N[C@H](C(=O)N1CCCC1)C1CCN(c2nccc3c(-c4ncc(Cl)cc4Cl)cccc23)CC1	PADI4 (Homo sapiens, UniProt Q9UM07)	enzyme activity, GDH-coupled	–	60 µM, added: 1.5 mM Ca2+ (high)	100%
CN[C@@H]1[C@H](O)[C@H](NC)[C@H]2O[C@]3(O)[C@H](O[C@@H]2[C@H]1O)O[C@H](C)C[C@H]3NC(=O)Cc1cc(Cl)ccn1	HTR2B (Homo sapiens, UniProt P41595)	ligand displacement, radioligand	–	10 µM	-12%
CCC1CC(c2ccc(C(=O)O)cc2C)=NN1c1ccc(C#N)c(Cl)c1 (stereo not drawn)	N6-adenosine-methyltransferase catalytic subunit, with METTL14 (METTL3, Homo sapiens, UniProt Q86U44)	enzyme activity	–	10 µM	0%
CCCC(=O)CC(=O)N[C@H]1CCOC1=O	lasR	reporter gene, antagonist	Escherichia coli JLD271	10 µM, pSC11 and pJN105L plasmids, added: OdDHL 2 nM	73%
CS(C)(=O)=Nc1ccc(-c2ccc(-c3nc4cc(O[C@@H]5CO[C@H]6[C@@H]5OC[C@H]6O)[nH]c4cc3F)cc2)cc1	STK3 (Homo sapiens, UniProt Q13188)	enzyme activity, inhibitor	–	10 µM	11%
C[C@H](NCc1ccc(-c2ccc(C(F)(F)F)cc2)cc1)C(N)=O	Na+/K+-ATPase, pig heart	enzyme activity	biochemical	1 µM, added: ATP 100 µM	-9%
COc1ccc2c(c1O)-c1c(O)c(OC)cc3c1[C@H](C2)[N+](C)(C)CC3	PDE4D (Homo sapiens, UniProt Q08499)	enzyme activity, inhibitor, radiometric	–	5 µM	7.23%
O=S(=O)(F)c1cccc2c1OCC2	Uncharacterized hydrolase SAUSA300_2518	enzyme activity, inhibitor, fluorogenic substrate	–	50 µM, 1 h preincubation	21.2%
O=C(CN1CN(c2ccccc2)C2(CCN(C(=O)c3cnc4[nH]ncc4c3)CC2)C1=O)NCC(F)(F)F	CDK14 (Homo sapiens, UniProt O94921)	inhibitor	–	concentration not given	< 50%
COc1ccc(CN(CCC(c2ccccc2)c2ccc(OC(C)C)cc2)C(=O)CCl)cc1OC (stereo not drawn)	GSTO1 (Homo sapiens, UniProt P78417)	–	–	5 µM	77%
O=C(Nc1ccccc1NC(=O)c1cccc(Cl)c1)c1cccc(Cl)c1	lasR	reporter gene, antagonist	Escherichia coli JLD271	10 µM, pSC11 and pJN105L plasmids, added: OdDHL 2 nM	12%
C[n+]1ccn(C(=O)N2CCOCC2)c1	Uncharacterized hydrolase SAUSA300_2518	enzyme activity, inhibitor	–	50 µM	98.2%
CCCCCCCCCC(=O)CC(=O)N[C@H]1CCOC1=O	lasR	reporter gene, antagonist	Escherichia coli JLD271	10 µM, pSC11 and pJN105L plasmids, added: OdDHL 2 nM	-79%
CN(/N=C/c1ccccc1C(=O)O)c1nc(-c2ccccc2Cl)cs1	EPHA4 (Homo sapiens, UniProt P54764)	enzyme activity, inhibitor	–	1 µM	-22.1%

Some of these lines once more:
SMILES	target	assay	test system	setting	inhibition
CCCCCCC(=O)N[C@H]1CCOC1=O	lasR	reporter gene, antagonist	Pseudomonas aeruginosa PAO-JP2	100 µM, plasI-LVAgfp reporter, added: OdDHL 150 nM	26%
C=CC(=O)Nc1cc(-c2nn(C3CCC(N4CCN(C(C)=O)CC4)CC3)c3ncnc(N)c23)ccc1Oc1ccccc1 (stereo not drawn)	MAPK3 (Homo sapiens, UniProt P27361)	inhibitor, KiNativ profiling	biochemical	2 µM	-2.3%
